Published values pooled from the literature.
Each line is one published result; not all experiments were run side by side. Several values in a cell are separate wells, animals, samples, runs or records. ± marks the error that the study gave.
CASP7: Caspase-7 (CASP7, Homo sapiens, UniProt P55210)
T1: G-quadruplex DNA, G-quadruplex (Homo sapiens); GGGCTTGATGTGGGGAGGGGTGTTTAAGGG

N#CN1CC[C@H](C(=O)Nc2nc3c(s2)CN(C(=O)Cn2cc(CNC(=O)CCCC[C@@H]4SC[C@@H]5NC(=O)N[C@@H]54)nn2)CC3)C1
iBAQ abundance (TUBB (Homo sapiens, UniProt P07437); probe binding, affinity probe, neutravidin pull-down LC-MS/MS; HEK293T, cell lysate; 5 µM, 1 h, mean of three replicates, unit not given; higher = more pulled down): 1.73e+08

CCOC(=O)C(CC)(CCCSCCOCCOCCN=[N+]=[N-])NC(=O)c1ccc(C2CC2)c(Cc2ccc(F)cc2)n1 (stereo not drawn)
Ki ratio (CNR2 (Homo sapiens, UniProt P34972); radioligand binding; reference: CB1 over CB2 (human)): 8

NS(=O)(=O)c1nnc(N2C(=O)c3cccc4c(N5CCOCC5)ccc(c34)C2=O)s1
fluorescence turn-on (CA2 (Bos taurus, UniProt P00921); binding; 2 µM, pH 7.2; reference: without protein): 7 fold

CCCC[C@H](NC(C)=O)C(=O)N[C@@H](CCC(=O)O)C(=O)N[C@H](C(=O)N[C@@H](CC(=O)O)C(=O)COC(=O)c1c(C)cccc1C)[C@@H](C)O
kinact/KI (CASP7; enzyme activity, inhibitor): 8900 M⁻¹ s⁻¹

COC(=O)[C@@]1(C(C)C)C=C(C(=O)Nc2cccc(C(=O)Nc3ccc(Nc4nccc(-c5cccnc5)n4)c(C)c3)c2)C(=O)CC1
kon (MAPK8 (Homo sapiens, UniProt P45983, C116S); binding, SPR; 100, 300, 1000 nM, 1:1 binding model): 300000 M⁻¹ s⁻¹

O=C(O)c1cc(-c2ccccc2)n(-c2ccccc2)n1
inhibition (Genome polyprotein, NS2B-NS3 protease (dengue virus type 2, UniProt P29990); enzyme activity, fluorogenic AMC substrate; 50 µM): 21%

C#CCOC(=O)[C@]1(C)C=C(C(=O)OC(C)(C)C)C(=O)CC1
normalized kinase activity (MAPK8 (Homo sapiens, UniProt P45983); enzyme activity, D-SENSOR; 0.02032 µM, single replicate): 1.02 and 1.04

Clc1ccc(NN=C(c2ccccc2)c2ccccn2)nc1
rate constant (KDM4A (Homo sapiens, UniProt O75164); demethylase activity, inhibitor, 1H NMR, refers to: H3K9me3 peptide; double exponential fit component): 0.043 min⁻¹

CN(C)c1ccc(C2=C/C(=C/C=C/c3sc4ccccc4[n+]3C)c3ccccc3O2)cc1
binding (T1, G-quadruplex DNA, G-quadruplex (Homo sapiens); fluorescence turn-on): binds

C/C1=C\CC/C(C)=C/CC(C)(C)/C=C/C1
current relative to initial (SCN9A (Homo sapiens, UniProt Q15858); whole-cell patch clamp; HEK293; 100 µM, 5 min, prolonged-opening voltage protocol; reference: before compound): 105 ± 4%

Cc1cc(C)cc(COc2cc3c(cc2OCc2cc(C)cc(C)c2)C2CC(O)(Cc4cn(CCOCCOCCNC(=O)CCCCC5SCC6NC(=O)NC65)nn4)CC(C)N2CC3)c1 (stereo not drawn)
SILAC ratio (CCT8 (Homo sapiens, UniProt P50990); biotinylated probe pull-down; 10 µM probe; reference: heavy over light): 1.31

CCCCCC=CC=C1C(=O)C=CC1CC=CCCCC(=O)O (stereo not drawn)
isoTOP-ABPP competition ratio (5'-nucleotidase domain-containing protein 1 (NT5DC1, Homo sapiens, UniProt Q5TFE4); competitive isoTOP-ABPP, refers to: NT5DC1 cysteine peptide; Ramos soluble proteome; 100 µM, added: iodoacetamide probe; reference: DMSO over compound-treated, higher = stronger cysteine blockade): 2.3

Cc1ccc(-n2cc(CNC(=O)c3cncc(Br)c3)cn2)cc1
number of kinases hit (human kinase panel; binding, KINOMEscan; 10000 nM, %Ctrl below 35): 0

O=C(O)Cc1cc2c(cc1C(=O)c1cccc(I)c1)OCO2
desensitization time constant (Gria2 (Rattus norvegicus, UniProt P19491); whole-cell patch clamp; HEK-293T; concentration not given, added: glutamate): 1.3 ± 0.1 ms

CC(=O)N1[C@H](C(=O)N[C@@H](CC(C)C)C(=O)N[C@@H](C)C(=O)N[C@@H](CC(=O)O)C(=O)COC(=O)c2c(C)cccc2C)C[C@@H]2CCCC[C@@H]21
kinact/KI (CASP7; enzyme activity, inhibitor): 1800 M⁻¹ s⁻¹

Excerpt of the above:
Clc1ccc(NN=C(c2ccccc2)c2ccccn2)nc1
rate constant (KDM4A (Homo sapiens, UniProt O75164); demethylase activity, inhibitor, 1H NMR, refers to: H3K9me3 peptide; double exponential fit component): 0.043 min⁻¹

N#CN1CC[C@H](C(=O)Nc2nc3c(s2)CN(C(=O)Cn2cc(CNC(=O)CCCC[C@@H]4SC[C@@H]5NC(=O)N[C@@H]54)nn2)CC3)C1
iBAQ abundance (TUBB (Homo sapiens, UniProt P07437); probe binding, affinity probe, neutravidin pull-down LC-MS/MS; HEK293T, cell lysate; 5 µM, 1 h, mean of three replicates, unit not given; higher = more pulled down): 1.73e+08
